Published values gathered from unrelated publications.
Each numbered part is a random draw from the data of one study; scales do not carry over between parts. Changes are numbered by the printed parent chain.
UniProt Q9NR20, sequence (whole entry, looked up): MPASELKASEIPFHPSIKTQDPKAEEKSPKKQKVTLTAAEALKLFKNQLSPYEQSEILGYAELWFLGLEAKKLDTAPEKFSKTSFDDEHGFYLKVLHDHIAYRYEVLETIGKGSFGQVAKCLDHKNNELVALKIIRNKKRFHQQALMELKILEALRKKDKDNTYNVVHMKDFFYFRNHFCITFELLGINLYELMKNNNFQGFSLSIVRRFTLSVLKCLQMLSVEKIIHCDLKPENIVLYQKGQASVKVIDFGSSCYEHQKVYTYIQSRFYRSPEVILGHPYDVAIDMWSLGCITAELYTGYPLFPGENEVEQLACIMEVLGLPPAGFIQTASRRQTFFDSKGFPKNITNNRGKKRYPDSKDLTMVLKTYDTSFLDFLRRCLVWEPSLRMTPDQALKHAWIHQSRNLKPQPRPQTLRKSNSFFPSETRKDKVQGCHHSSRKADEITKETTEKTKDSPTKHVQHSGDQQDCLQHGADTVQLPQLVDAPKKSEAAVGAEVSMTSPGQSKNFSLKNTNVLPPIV

Block 1 — technique: protein-binding microarray; form: double-stranded DNA, one strand shown; sample: in vitro; concentration: 250 nM; setting: 60-bp whole probe; together with: salmon DNA 0.4 mg/ml; baseline: random background probes; reading: higher = stronger binding
Target: Interferon regulatory factor 5, full length, phosphomimetic (IRF5, Homo sapiens, UniProt Q13568-2, residues 1-514, K96S/S451D/S453D/S456D/S462D)
Constant ends, left off below: GCCTAGCAC … GTGCTAGGTCTTGATTCGCTTGACGCTGCTG
`AAGACTTTGGTTTGTACACC` has a log fluorescence of -0.266 z-score.
`TTATATCTCAGTATCGATTA` gave a log fluorescence of 7.29 z-score.
For `GACGGTTTCGGTCCCGGGAC`, the log fluorescence was 9.31 z-score.
`CAGATTTGGCATATCTATTT` gave a log fluorescence of 0.395 z-score.
`GCTTCTCCTTGGAATAGATC` gave a log fluorescence of -0.000721 z-score.
For `GACGAACTGAGTATCGCGAC`, the log fluorescence was -0.104 z-score.
The log fluorescence of `TTAGGTCTCGGTTTCCGTTA` is reported as 1.45 z-score.
The log fluorescence of `CATTATTTCAATGCAAGGTG` is reported as 0.713 z-score.

Block 2 — technique: protein-binding microarray; form: double-stranded DNA, one strand shown; sample: in vitro; concentration: not given; reading: higher = stronger binding
Target: Myc proto-oncogene protein, bHLH-zipper, MAX partner unstated (MYC, Homo sapiens, UniProt P01106, residues 368-449)
UniProt P01106, sequence (368-449, looked up): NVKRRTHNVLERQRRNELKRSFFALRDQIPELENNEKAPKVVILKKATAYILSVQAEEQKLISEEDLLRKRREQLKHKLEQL
Setting: k-mer, scored over probes, only values ≥0.25
`CGTGCGTA` has an E-score of 0.311.
`CGCGTACA` gave an E-score of 0.293.
The E-score of `GGCCATGA` is reported as 0.346.
The E-score of `AACCCACG` is reported as 0.391.
For `ACCCACGC`, the E-score was 0.411.
For `CATGCTTA`, the E-score was 0.396.
The E-score of `CACGTTTA` is reported as 0.326.
For `CGTTCTCC`, the E-score was 0.265.

Block 3 — target: FOSL2, bZIP domain (human); technique: DHFR protein complementation; sample: yeast; baseline: wild-type JUN-FOS pair; reading: higher = stronger binding
Setting: single substitutions, most at no-binding floor
Starting sequence: JUN, bZIP domain (human); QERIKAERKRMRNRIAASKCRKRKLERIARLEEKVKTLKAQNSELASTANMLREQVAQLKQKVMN; partner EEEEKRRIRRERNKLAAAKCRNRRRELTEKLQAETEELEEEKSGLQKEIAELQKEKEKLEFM
The binding fitness of `L31R` is reported as -0.621 natural log.
`V56T` gave a binding fitness of -0.431 natural log.
The binding fitness of `E44C` is reported as -0.0445 natural log.
For `E44M`, the binding fitness was 0.0543 natural log.
With `E32W` the binding fitness was -0.168 natural log.
For `E32K`, the binding fitness was 0.0558 natural log.
`L31M` has a binding fitness of 0.113 natural log.
The binding fitness of `K34N` is reported as -0.11 natural log.

Further values, each from its own experiment
For `CCN(CC)C(=O)c1ccc(Nc2nc(OCC3CCCCC3)c3[nH]cnc3n2)cc1`, the remaining activity was 93.6% (Dual specificity tyrosine-phosphorylation-regulated kinase 4 (DYRK4, Homo sapiens, UniProt Q9NR20); enzyme activity, inhibitor; 0.5 µM; baseline: control).

Some of these lines once more (block 1):
`TTATATCTCAGTATCGATTA` gave a log fluorescence of 7.29 z-score.
